Assay results collected from several papers.
A part holds a random share of what one study measured.

Block 1
Target: Histone acetyltransferase KAT6A, winged helix 1, GST fusion (KAT6A, Homo sapiens, UniProt Q92794, residues 1-85)
Technique: protein binding microarray
Form: double-stranded DNA, one strand shown
Sample: in vitro
Tested at: not given
Notes: 8-mer, flanks averaged, mean of 2 arrays, mostly near background
Reference: not given
Direction: higher = stronger binding
Construct (chain): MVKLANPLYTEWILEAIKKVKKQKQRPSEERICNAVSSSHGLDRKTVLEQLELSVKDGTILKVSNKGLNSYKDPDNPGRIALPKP
`CATGGAGG` gave an E-score of -0.148.
With `CGAGTCTC` the E-score was -0.0774.
`AGCTTTGC` has an E-score of -0.0354.
`CCGACGTC` gave an E-score of 0.241.
For `AGTCGCAG`, the E-score was -0.0184.
`AGCATTAC` gave an E-score of -0.112.
The E-score of `TCAAATAA` is reported as -0.142.
`AGCCTCAT` has an E-score of -0.162.
For `CTCAACGC`, the E-score was 0.153.
`AAGCTTTA` has an E-score of -0.129.
The E-score of `TCGTAAAA` is reported as -0.0202.
For `GCACACAC`, the E-score was -0.0624.
`CTTTCCCA` has an E-score of -0.229.
With `ACGTCTTA` the E-score was -0.158.
With `GTCTGTAA` the E-score was 0.0406.
`AGAAAGAT` gave an E-score of -0.129.
`CTGACGCA` gave an E-score of 0.174.
`GAGTACCA` has an E-score of -0.259.
For `CCAACCAC`, the E-score was -0.212.
`AGCATAAA` gave an E-score of -0.118.
`AGTCAACA` gave an E-score of -0.247.
`CCTTTAAG` gave an E-score of -0.0925.
`GCACCTAC` gave an E-score of -0.0639.
`AGTGTCGG` gave an E-score of 0.202.
`CACCTCGA` has an E-score of -0.106.

Block 2
Target: RNA binding protein fox-1 homolog 2, RRM domain, GST-SBP tag (RBFOX2, Homo sapiens, UniProt O43251-10, residues 100-194)
Technique: RNA Bind-n-Seq
Form: RNA
Sample: in vitro
Tested at: 365 nM
Notes: natural RNA segment, single round, ends assumed
Reference: no-protein control
Direction: higher = stronger binding
Target sequence (chain): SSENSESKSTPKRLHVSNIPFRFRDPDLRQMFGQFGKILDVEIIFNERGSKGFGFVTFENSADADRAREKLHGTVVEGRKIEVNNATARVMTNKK
`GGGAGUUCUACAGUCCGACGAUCAUGGUUUCGAAAACUUUCUGUUUUUAUUUUGUCACAGAGCUGUUGUCAUAGUUGAAAUGAUGUUUAUUGUAGAUGGUAUUUGAACUUAUUCUUCUGGAAAUAGUUCAUCAUGGAAUUCUCGGGUGCCAA`: “RBNS enrichment (R)” 0.482.
`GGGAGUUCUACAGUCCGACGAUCUCCUGCCAUACAUCUACAAAGUGGGUUUUGAGUGAGGGCAGGUGGCCCAGUGGCUUUGGGUGGCGACUGAGCUGGUCCCACGAGGGGAGGAGGGUUUAUAUACCCCAUGAUGGAAUUCUCGGGUGCCAA` — result for “RBNS enrichment (R)”: 1.13.
`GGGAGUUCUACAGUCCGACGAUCAAUUUCUGAAACUGUUUACAAGGAAUUUUGAAAAACAGGGAUGUUUAAAUGAUGCCGGCUCUGUUUUUCUGUAAAUAAAUUUGCAUAUUUUGUAGGACUUUUAAUUGUAAUGGAAUUCUCGGGUGCCAA` — result for “RBNS enrichment (R)”: 1.14.
`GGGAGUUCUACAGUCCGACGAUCUCUUGCCCAAGGGCCUCCUGCAUAGACCUUGUCGGUCAAAUCUUGAGUCCUUGUACAGAAAUGAUAGAGGCCUGAGGGGGUGUGCAGGUGAUAGACCCUGGUACUCCUAAUGGAAUUCUCGGGUGCCAA`: “RBNS enrichment (R)” 0.411.
`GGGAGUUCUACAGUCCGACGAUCUUGGAGAAUUAGAAUUCUCCAUCCUAUUAAACAGAAAGUAAAGCCAAAUAGCCUGGAGUUGUUUGUCCUACUUGUUCCAUAACCCCUAUGCUCAAGAUACUGAAGCUAUCUGGAAUUCUCGGGUGCCAA`: “RBNS enrichment (R)” 0.365.
Under “RBNS enrichment (R)”, `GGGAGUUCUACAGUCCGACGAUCUCAGUGUCCUGAAAAAUGGAACCACCCACUAACCAUAUGCACUGGCUGCCCAGGUGGCUGCACUCCGGGGAUCACGUUUCAGUACUGAGUUCCUUCACGCACUUGGUUCAUGGAAUUCUCGGGUGCCAA` is recorded as 0.768.
Under “RBNS enrichment (R)”, `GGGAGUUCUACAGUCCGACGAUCACUGCUGGCCAGAGGACUUUAGCCUACCCCUGAAGAGCCUGUCCAUGUCAUUUUCCUACUGCCAUAGAUACCCUAAGCCCAGGGCCCCUUGAGGCCCAGACUCAGCCUGCUGGAAUUCUCGGGUGCCAA` is recorded as 0.246.
For `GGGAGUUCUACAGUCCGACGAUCCCUCUUUCCUGGGGACAAAAGGCUCUCCUAGACAUGAGUGAGCAGGUAAUCGCCCAACUUGGCUUUGGGGAAAGUCAGAGUCUGACAGAGCUGAGCAUUGUCUCAUCCAGUGGAAUUCUCGGGUGCCAA`, “RBNS enrichment (R)” read 0.367.

Block 3
Target: Centromere-binding protein 1, full length, His-tagged (CBF1, Saccharomyces cerevisiae, UniProt P17106, residues 1-351)
Sequence of UniProt P17106 (whole entry, looked up): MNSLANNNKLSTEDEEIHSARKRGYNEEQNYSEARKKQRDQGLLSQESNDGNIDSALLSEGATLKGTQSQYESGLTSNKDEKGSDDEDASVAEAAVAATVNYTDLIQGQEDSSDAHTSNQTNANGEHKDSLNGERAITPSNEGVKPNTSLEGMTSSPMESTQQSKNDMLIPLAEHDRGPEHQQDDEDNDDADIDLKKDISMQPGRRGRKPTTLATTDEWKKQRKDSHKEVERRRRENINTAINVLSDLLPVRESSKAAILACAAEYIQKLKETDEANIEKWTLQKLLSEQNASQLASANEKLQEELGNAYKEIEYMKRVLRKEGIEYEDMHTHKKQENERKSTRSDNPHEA
Technique: competition protein-binding microarray
Form: double-stranded DNA, one strand shown
Sample: in vitro
Tested at: 2 µM
Notes: whole 60-bp probe, lowest competitor level
Together with: Pho4 competitor, 0.05 µM
Direction: higher = stronger binding
`TAGCTAGGGAGCCCTTGCATGACAATTCTGCTAACAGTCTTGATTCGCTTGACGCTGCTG` has a fluorescence intensity of 56.6 a.u.
For `TGCGCAACAACTTGAGTTGTGGGTGTATGTCTAGAAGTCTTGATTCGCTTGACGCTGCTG`, the fluorescence intensity was 73.1 a.u.
For `GTCTGAGTAAGTCCGCACGTCCAACGTCTTGAGTCGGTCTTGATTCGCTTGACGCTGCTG`, the fluorescence intensity was 66.5 a.u.
`CATACCCAACCTTGCACGGTGGGTGAAGATATTTGTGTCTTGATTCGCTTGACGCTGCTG` has a fluorescence intensity of 61.7 a.u.
With `ATGAATACACTTTGAAACGTGACGGTGCCATCGATGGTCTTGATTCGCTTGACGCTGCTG` the fluorescence intensity was 382 a.u.
For `CTTCTGTAAATTTGCGGCGTGGGTGGACGCGCCCCGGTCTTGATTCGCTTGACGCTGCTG`, the fluorescence intensity was 76.8 a.u.
`CTTTCCCGATCTTGTGCTGTGGGTGTAGCACATTTGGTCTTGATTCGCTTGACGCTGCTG` has a fluorescence intensity of 64.6 a.u.
With `TACCAAAAGTATTCATACGTGGCCGCTTGTTACCCCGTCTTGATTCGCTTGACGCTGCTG` the fluorescence intensity was 64 a.u.
For `CTACATCGAGGTAAACGCGTGTCGGGGTGCAAGCATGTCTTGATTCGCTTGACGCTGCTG`, the fluorescence intensity was 93.1 a.u.
The fluorescence intensity of `TGTGAATGGTGGGAGTGCATGACAACGAGGATTTTTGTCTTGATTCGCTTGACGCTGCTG` is reported as 83.1 a.u.
The fluorescence intensity of `GTCTTGTCTCATTAGCACGTGTTTTTCCCCACTTCAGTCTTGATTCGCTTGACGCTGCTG` is reported as 2420 a.u.
`CTTCTGTAAATTTGTGGAGTGGGTGGACGCGCCCCGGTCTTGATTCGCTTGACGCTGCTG` gave a fluorescence intensity of 82.5 a.u.
For `TCTCGACCCGGGTGGCTCGTGCGATCTCCGGAAAAAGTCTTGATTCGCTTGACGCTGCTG`, the fluorescence intensity was 72 a.u.
`AAACCTCTCTGCTTCTACCAAAGTCCTAAAATCTCCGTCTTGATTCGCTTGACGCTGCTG` has a fluorescence intensity of 65 a.u.
With `GGAAAGGCTCTTCAACACGTGGCAACATAGGTTAATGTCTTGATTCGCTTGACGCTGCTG` the fluorescence intensity was 1050 a.u.
`AATTGGCTTGAAGGAAACGTGAGAACCATTAACACAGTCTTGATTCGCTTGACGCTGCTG` gave a fluorescence intensity of 132 a.u.
With `TGCGCAACAACTTTTCACGTGAGGTTATGTCTAGAAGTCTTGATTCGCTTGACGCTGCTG` the fluorescence intensity was 1180 a.u.
`CTATCTAGTACCCGCCCCGTGGCAAAAAAAGAAGACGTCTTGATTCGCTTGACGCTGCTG` has a fluorescence intensity of 124 a.u.
For `CATACCCAACCTTGCTAGGTGGGTGAAGATATTTGTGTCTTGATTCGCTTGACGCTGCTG`, the fluorescence intensity was 62.2 a.u.

Block 4
Target: UBE2S UBC core domain (UniProt Q16763)
Technique: yeast two-hybrid
Sample: yeast
Notes: mostly zero background
Reference: not given
Direction: higher = stronger interaction
B1: CNOT4 RING domain (UniProt O95628); chain MSRSPDAKEDPVECPLCMEPLEIDDINFFPCTCGYQICRFCWHRIRTDENGLCPACRKPYPED
B2: ZNRF4 RING domain (UniProt Q8WWF5); chain VRTFTWHNDLCAICLDEYEEGDQLKILPCSHTYHCKCIDPWFSQAPRRSCPVCKQSVAATEDSF
B3: HLTF RING domain (UniProt Q14527); chain LILSSGSDEECAICLDSLTVPVITHCAHVFCKPCICQVIQNEQPHAKCPLCRNDIHEDNLLE
B4: MARCHF1 RING domain (UniProt Q8TCQ1); chain TAPRSQSRLSVCPSTQDICRICHCEGDEESPLITPCRCTGTLRFVHQSCLHQWIKSSDTRCCELCKYDFIMETKLKPLRKWE
B5: NFX1 RING domain (UniProt Q12986); chain IEQLTTEKYECMVCCELVRVTAPVWSCQSCYHVFHLNCIKKWARSPASQADGQSGWRCPACQNVSAHVPNTY
B6: RNF103 RING domain (UniProt O00237); chain WPADMLHCTECVVCLENFENGCLLMGLPCGHVFHQNCIVMWLAGGRHCCPVCRWPSYKKKQPY
B7: BFAR RING domain (UniProt Q9NZS9); chain GPQISVSEFSCHCCYDILVNPTTLNCGHSFCRHCLALWWASSKKTECPECREKWEGFPKVS
B8: MKRN3 RING domain (UniProt Q13064); chain FAVQRGMDKVCGICMEVVYEKANPNDRRFGILSNCNHSFCIRCIRRWRSARQFENRIVKSCPQCRVTSELVIPSE
Construct (chain): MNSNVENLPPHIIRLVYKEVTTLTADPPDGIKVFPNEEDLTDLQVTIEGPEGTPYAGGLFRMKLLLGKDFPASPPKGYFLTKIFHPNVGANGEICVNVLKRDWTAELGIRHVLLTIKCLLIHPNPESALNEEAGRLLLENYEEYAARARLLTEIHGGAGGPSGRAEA
Under “lacZ reporter activity”, `B1 (CNOT4 RING domain)` is recorded as 0.
`B2 (ZNRF4 RING domain)`: “lacZ reporter activity” 0.
Under “lacZ reporter activity”, `B3 (HLTF RING domain)` is recorded as 0.
`B4 (MARCHF1 RING domain)`: “lacZ reporter activity” 0.
`ASEEEFQFLRCQQCQAEAKCPKLLPCLHTLCSGCLEASGMQCPICQAPWPLGADTP (PML RING domain (UniProt P29590))` — result for “lacZ reporter activity”: 0.
Under “lacZ reporter activity”, `FAEQPSVKLCCQLCCSVFKDPVITTCGHTFCRRCALKSEKCPVDNVKLTVVVNNI (TRAF7 RING domain (UniProt Q6Q0C0))` is recorded as 0.
`B5 (NFX1 RING domain)` — result for “lacZ reporter activity”: 0.
`B6 (RNF103 RING domain)` — result for “lacZ reporter activity”: 0.
For `LVKDFNPYITCYICKGYLIKPTTVTECLHTFCKTCIVQHFEDSNDCPRCGNQVHETNPLE (PCGF5 RING domain (UniProt Q86SE9))`, “lacZ reporter activity” read 0.
`B7 (BFAR RING domain)` — result for “lacZ reporter activity”: 0.
`B8 (MKRN3 RING domain)`: “lacZ reporter activity” 0.

Repeated from above (block 3):
The fluorescence intensity of `TGTGAATGGTGGGAGTGCATGACAACGAGGATTTTTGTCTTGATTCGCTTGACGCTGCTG` is reported as 83.1 a.u.
With `TACCAAAAGTATTCATACGTGGCCGCTTGTTACCCCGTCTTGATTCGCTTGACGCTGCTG` the fluorescence intensity was 64 a.u.
For `CTACATCGAGGTAAACGCGTGTCGGGGTGCAAGCATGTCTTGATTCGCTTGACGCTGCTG`, the fluorescence intensity was 93.1 a.u.
For `CATACCCAACCTTGCTAGGTGGGTGAAGATATTTGTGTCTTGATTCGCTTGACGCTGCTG`, the fluorescence intensity was 62.2 a.u.
`CTTCTGTAAATTTGTGGAGTGGGTGGACGCGCCCCGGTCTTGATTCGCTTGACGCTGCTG` gave a fluorescence intensity of 82.5 a.u.
`AAACCTCTCTGCTTCTACCAAAGTCCTAAAATCTCCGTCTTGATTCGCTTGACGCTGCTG` has a fluorescence intensity of 65 a.u.
For `GTCTGAGTAAGTCCGCACGTCCAACGTCTTGAGTCGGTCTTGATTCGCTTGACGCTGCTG`, the fluorescence intensity was 66.5 a.u.
With `GGAAAGGCTCTTCAACACGTGGCAACATAGGTTAATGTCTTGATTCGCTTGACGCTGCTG` the fluorescence intensity was 1050 a.u.
